Results pooled from the literature.
“And” joins repeats or separate records; there may be more than shown. Numbers after ± are the reported error.
CASP7: Caspase-7 (CASP7, Homo sapiens, UniProt P55210)
Chain of UniProt P46089 (whole entry, looked up): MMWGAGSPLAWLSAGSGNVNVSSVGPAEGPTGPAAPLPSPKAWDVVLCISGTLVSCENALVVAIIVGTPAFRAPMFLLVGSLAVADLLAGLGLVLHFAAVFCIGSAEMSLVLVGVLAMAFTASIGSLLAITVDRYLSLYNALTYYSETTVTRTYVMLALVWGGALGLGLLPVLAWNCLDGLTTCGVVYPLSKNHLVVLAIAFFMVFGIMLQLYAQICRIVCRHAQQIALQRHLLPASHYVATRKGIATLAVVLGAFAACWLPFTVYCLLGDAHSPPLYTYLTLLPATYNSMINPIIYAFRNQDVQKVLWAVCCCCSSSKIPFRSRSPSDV
Chain of UniProt P07437 (whole entry, looked up): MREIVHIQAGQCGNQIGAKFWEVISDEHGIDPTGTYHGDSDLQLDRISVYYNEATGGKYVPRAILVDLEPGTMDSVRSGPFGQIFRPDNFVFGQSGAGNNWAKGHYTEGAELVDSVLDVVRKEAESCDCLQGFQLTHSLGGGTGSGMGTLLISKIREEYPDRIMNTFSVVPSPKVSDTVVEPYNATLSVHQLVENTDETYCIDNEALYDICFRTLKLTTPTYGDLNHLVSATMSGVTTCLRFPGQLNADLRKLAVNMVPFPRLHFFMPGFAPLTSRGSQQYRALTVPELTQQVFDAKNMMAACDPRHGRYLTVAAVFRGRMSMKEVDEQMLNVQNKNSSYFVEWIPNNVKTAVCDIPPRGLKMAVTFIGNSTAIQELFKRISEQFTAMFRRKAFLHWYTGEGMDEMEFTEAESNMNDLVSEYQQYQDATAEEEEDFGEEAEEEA
Chain of UniProt P55210 (whole entry, looked up): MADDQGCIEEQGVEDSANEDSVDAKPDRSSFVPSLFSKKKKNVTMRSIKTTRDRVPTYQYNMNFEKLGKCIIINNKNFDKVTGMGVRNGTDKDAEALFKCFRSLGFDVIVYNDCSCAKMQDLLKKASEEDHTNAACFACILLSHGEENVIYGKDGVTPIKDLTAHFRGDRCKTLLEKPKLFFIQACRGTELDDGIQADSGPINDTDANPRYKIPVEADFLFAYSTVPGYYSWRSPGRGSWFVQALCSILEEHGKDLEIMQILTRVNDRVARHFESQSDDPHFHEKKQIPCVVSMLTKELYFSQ
Chain of UniProt Q9HBA0 (whole entry, looked up): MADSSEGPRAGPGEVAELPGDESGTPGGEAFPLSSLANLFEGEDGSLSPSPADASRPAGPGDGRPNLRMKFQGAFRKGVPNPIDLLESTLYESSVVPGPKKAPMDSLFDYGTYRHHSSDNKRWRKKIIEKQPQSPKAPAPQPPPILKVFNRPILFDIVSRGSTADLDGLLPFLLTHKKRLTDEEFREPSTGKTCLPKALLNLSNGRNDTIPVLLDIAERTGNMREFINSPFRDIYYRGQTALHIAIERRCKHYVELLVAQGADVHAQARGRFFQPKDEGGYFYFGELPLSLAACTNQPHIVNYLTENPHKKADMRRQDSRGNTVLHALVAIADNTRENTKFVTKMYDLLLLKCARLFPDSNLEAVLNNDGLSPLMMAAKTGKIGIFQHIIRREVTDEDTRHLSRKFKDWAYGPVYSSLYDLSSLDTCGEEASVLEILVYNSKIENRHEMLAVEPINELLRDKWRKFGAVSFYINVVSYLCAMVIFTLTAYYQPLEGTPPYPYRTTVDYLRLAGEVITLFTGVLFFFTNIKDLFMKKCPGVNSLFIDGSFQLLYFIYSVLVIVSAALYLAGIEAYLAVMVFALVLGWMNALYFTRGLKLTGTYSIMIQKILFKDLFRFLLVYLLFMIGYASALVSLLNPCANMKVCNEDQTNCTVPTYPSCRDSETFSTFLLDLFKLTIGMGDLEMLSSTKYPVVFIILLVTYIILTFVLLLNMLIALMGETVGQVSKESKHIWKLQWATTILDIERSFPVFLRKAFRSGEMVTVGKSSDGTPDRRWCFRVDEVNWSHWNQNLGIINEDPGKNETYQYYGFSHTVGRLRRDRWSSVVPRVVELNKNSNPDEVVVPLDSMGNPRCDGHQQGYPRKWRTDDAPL
Chain of UniProt Q9NR31 (whole entry, looked up): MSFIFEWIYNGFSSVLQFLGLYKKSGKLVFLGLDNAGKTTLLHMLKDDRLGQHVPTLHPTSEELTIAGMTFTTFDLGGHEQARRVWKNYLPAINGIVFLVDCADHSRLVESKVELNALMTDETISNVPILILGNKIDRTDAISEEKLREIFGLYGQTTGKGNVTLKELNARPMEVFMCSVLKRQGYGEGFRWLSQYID
Chain of UniProt P62316 (whole entry, looked up): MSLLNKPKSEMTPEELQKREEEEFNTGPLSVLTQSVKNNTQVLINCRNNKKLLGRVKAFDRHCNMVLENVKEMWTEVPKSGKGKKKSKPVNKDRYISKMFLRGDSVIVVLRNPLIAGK
Chain of UniProt Q5TFE4 (whole entry, looked up): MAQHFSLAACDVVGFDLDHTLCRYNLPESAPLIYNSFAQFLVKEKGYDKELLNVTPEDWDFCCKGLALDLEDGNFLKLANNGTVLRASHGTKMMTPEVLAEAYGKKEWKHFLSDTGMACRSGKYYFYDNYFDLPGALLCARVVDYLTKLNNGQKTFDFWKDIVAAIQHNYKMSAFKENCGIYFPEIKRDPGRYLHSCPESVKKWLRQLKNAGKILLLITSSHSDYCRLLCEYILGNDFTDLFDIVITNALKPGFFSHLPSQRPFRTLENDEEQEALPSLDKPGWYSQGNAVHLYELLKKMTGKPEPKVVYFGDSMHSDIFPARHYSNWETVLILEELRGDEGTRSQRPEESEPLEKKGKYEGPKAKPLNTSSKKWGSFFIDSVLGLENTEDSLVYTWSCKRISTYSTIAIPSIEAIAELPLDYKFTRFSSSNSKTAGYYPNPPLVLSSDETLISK
Chain of UniProt P19491 (whole entry, looked up): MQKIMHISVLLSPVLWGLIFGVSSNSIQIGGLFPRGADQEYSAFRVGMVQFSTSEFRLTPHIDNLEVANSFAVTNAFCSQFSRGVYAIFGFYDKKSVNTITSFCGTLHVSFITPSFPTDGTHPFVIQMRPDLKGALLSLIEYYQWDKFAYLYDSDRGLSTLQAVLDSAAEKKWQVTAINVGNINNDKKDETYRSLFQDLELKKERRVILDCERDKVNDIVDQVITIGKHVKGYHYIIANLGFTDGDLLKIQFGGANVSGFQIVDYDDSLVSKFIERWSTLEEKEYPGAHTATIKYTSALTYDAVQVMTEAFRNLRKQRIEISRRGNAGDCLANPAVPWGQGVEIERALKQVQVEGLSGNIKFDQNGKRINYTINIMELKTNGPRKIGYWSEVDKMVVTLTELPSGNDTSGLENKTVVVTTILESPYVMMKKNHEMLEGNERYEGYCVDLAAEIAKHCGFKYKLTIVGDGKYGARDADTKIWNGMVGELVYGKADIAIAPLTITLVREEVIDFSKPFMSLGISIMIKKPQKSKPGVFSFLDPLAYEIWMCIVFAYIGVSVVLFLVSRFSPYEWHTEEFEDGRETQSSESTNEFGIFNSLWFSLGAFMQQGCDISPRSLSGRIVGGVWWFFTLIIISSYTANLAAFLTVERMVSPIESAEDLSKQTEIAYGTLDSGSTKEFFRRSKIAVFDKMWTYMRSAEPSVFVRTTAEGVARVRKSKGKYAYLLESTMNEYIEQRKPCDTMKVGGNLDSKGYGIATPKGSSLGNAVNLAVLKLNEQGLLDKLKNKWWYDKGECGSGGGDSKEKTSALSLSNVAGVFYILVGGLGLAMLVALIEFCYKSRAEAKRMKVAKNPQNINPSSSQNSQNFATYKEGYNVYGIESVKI
Chain of UniProt Q704Y3 (whole entry, looked up): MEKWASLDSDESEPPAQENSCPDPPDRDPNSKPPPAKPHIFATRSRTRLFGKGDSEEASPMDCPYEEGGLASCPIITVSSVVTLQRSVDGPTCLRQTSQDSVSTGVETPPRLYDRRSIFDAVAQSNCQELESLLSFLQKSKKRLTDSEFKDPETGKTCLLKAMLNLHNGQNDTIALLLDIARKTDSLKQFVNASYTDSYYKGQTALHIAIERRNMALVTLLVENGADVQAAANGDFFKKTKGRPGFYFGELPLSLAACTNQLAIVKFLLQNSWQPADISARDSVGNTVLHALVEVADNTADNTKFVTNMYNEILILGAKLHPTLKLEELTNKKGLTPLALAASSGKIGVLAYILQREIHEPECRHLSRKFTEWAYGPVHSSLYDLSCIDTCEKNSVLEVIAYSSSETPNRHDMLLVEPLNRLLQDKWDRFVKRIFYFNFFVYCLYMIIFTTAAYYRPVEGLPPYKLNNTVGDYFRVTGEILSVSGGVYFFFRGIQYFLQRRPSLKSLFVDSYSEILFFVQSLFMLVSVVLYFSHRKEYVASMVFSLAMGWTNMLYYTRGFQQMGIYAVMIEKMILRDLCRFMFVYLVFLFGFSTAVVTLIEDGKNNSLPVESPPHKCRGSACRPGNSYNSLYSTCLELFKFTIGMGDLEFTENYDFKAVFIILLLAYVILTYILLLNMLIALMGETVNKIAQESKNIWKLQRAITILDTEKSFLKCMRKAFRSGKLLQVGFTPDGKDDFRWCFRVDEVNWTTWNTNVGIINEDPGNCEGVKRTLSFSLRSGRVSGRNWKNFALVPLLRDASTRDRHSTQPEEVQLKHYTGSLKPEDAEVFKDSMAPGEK
Chain of UniProt P34972 (whole entry, looked up): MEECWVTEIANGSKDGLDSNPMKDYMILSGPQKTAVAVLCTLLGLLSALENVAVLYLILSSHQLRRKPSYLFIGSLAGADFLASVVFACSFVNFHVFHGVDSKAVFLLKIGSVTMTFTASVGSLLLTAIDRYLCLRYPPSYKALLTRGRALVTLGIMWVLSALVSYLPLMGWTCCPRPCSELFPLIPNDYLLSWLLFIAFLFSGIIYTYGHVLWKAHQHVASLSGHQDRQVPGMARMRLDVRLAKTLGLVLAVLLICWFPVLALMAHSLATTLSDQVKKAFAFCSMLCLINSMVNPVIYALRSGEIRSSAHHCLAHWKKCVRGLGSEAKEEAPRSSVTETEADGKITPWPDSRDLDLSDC

Under “isoTOP-ABPP competition ratio”, `CCCCCC=CC=C1C(=O)C=CC1CC=CCCCC(=O)O` (stereo not drawn) is recorded as 1.6 (5'-nucleotidase domain-containing protein 1 (NT5DC1, Homo sapiens, UniProt Q5TFE4); competitive isoTOP-ABPP, refers to: NT5DC1 cysteine peptide; proteome, soluble, MDA-MB-231; 100 µM, with: iodoacetamide probe; reference: DMSO over compound-treated, higher = stronger cysteine blockade).
`N#CN1CC[C@H](C(=O)Nc2nc3c(s2)CN(C(=O)Cn2cc(CNC(=O)CCCC[C@@H]4SC[C@@H]5NC(=O)N[C@@H]54)nn2)CC3)C1` gave an iBAQ abundance of 1.12e+08 and 1.25e+08 and 2.84e+08 (Tubulin beta-5 chain (TUBB, Homo sapiens, UniProt P07437); probe binding, affinity probe, neutravidin pull-down LC-MS/MS; HEK293T, cell lysate; 5 µM, 1 h, single replicate, unit not given; higher = more pulled down).
For `CCCCCCCC/C=C\CCCCCCCC(=O)NCCO`, “maximal open probability” read 0.64 ± 0.07 (Transient receptor potential cation channel subfamily V member 1 (Trpv1, Mus musculus, UniProt Q704Y3); ion current, agonist, whole-cell patch clamp; HEK293; reference: 3 mM 2-APB current).
`CC(C)Oc1cc(Cl)ccc1CNc1cc(-c2ccccc2)nc2ncnn12` gave a cAMP luminescence of 39100 a.u. and 48400 a.u. and 34900 a.u. and 27900 a.u. and 27400 a.u. (G-protein coupled receptor 3 (GPR3, Homo sapiens, UniProt P46089); cAMP reporter; human cells; 100 pM; higher is more cAMP).
Under “melting temperature shift”, `C=CC(=O)N1CCCC(n2c(=O)c3ncccc3n(Cc3ccc(Oc4ccccc4)cc3)c2=O)C1` (stereo not drawn) is recorded as -3.01 (Small nuclear ribonucleoprotein Sm D2 (Homo sapiens, UniProt P62316); thermal proteome profiling, refers to: SNRPD2; unit not given; reference: vehicle).
`CC(=O)N[C@@H](CCC(N)=O)C(=O)N[C@@H](CC(C)C)C(=O)N1CCC[C@H]1C(=O)N[C@@H](CC(=O)O)C(=O)COC(=O)c1c(C)cccc1C` has a kinact/KI of 24800 M⁻¹ s⁻¹ (CASP7; enzyme activity, inhibitor).
For `COc1cc(-c2cn(C)c(=O)c3cnccc23)cc(OC)c1CN(C)C`, the ΔTm was 1.1 °C (Histone acetyltransferase KAT2B (KAT2B, Homo sapiens, UniProt Q92831)).
`Cc1cc(C)cc(COc2cc3c(cc2OCc2cc(C)cc(C)c2)C2CC(O)(Cc4cn(CCOCCOCCNC(=O)CCCCC5SCC6NC(=O)NC65)nn4)CC(C)N2CC3)c1` (stereo not drawn) gave an SILAC ratio of 1.56 (Small COPII coat GTPase SAR1A (SAR1A, Homo sapiens, UniProt Q9NR31); biotinylated probe pull-down, refers to: SAR1A; 10 µM probe; reference: heavy over light).
`Cc1ccc(-n2cc(CNC(=O)c3cncc(Br)c3)nn2)cc1` — result for “number of kinases hit”: 0 (human kinase panel; binding, KINOMEscan; 10000 nM, %Ctrl below 35).
`COC(=O)Cc1cc2c(cc1C(=O)c1ccccc1)OCO2`: “deactivation time constant” 2.2 ± 0.1 ms (Glutamate receptor 2 (Gria2, Rattus norvegicus, UniProt P19491); glutamate-evoked current, whole-cell patch clamp; HEK-293T; concentration not given, weighted tau, 1 ms pulse, with: glutamate).
`NC(=O)c1cccc(NC(=O)c2cc(-c3ccccc3)n(-c3ccc(Br)cc3)n2)c1` gave an inhibition of 81% (Genome polyprotein, NS2B-NS3 protease (dengue virus type 2, UniProt P29990); enzyme activity, fluorogenic AMC substrate; 50 µM).
`CCC[C@H](NC(=O)[C@H](CC(=O)O)NC(C)=O)C(=O)N1[C@H](C(=O)N[C@@H](CC(=O)O)C(=O)COC(=O)c2c(C)cccc2C)C[C@@H]2CCCC[C@@H]21` has a kinact/KI of 940000 M⁻¹ s⁻¹ (CASP7; enzyme activity, inhibitor).
`CCOC(=O)C(CC)(CCCSCCOCCNc1ccc([N+](=O)[O-])c2nonc12)NC(=O)c1ccc(C2CC2)c(Cc2ccc(F)cc2)n1` (stereo not drawn) has an Emax of 121% (Cannabinoid receptor 2 (CNR2, Homo sapiens, UniProt P34972); cAMP, agonist).
The Hill coefficient of `C/C1=C\CC/C(C)=C/CC(C)(C)/C=C/C1` is reported as 1.2 (Transient receptor potential cation channel subfamily V member 4 (TRPV4, Homo sapiens, UniProt Q9HBA0); inhibitor, outside-out patch clamp; with: GSK1016790A 1 µM).
`C[C@](C(=O)NC1CCOCC1)(c1cncnc1)N(C(=O)[C@H](F)Cl)c1ccc(OC(F)(F)Cl)cc1` gave a remaining activity of 104% (Kallikrein-12 (Homo sapiens, UniProt Q9UKR0); enzyme activity, inhibitor; 10 µM).

A few entries again:
For `CCCCCCCC/C=C\CCCCCCCC(=O)NCCO`, “maximal open probability” read 0.64 ± 0.07 (Transient receptor potential cation channel subfamily V member 1 (Trpv1, Mus musculus, UniProt Q704Y3); ion current, agonist, whole-cell patch clamp; HEK293; reference: 3 mM 2-APB current).
`CC(=O)N[C@@H](CCC(N)=O)C(=O)N[C@@H](CC(C)C)C(=O)N1CCC[C@H]1C(=O)N[C@@H](CC(=O)O)C(=O)COC(=O)c1c(C)cccc1C` has a kinact/KI of 24800 M⁻¹ s⁻¹ (CASP7; enzyme activity, inhibitor).
